Experimental data pooled from the literature.
Numbered parts are unrelated; each lists some results of a single study.

Series 1 — method: protein binding microarray; form: double-stranded DNA, one strand shown; sample: in vitro; concentration: not given; baseline: not given; direction: higher = stronger binding
Target: Histone acetyltransferase KAT6A, winged helix 2, GST fusion (KAT6A, Homo sapiens, UniProt Q92794, residues 85-181)
Setting: 8-mer, flanks averaged, mean of 2 arrays, mostly near background
Target sequence (chain): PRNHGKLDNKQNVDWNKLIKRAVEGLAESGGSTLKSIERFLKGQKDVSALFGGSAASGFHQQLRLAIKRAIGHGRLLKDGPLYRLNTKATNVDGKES
| Sequence | E-score |
| --- | --- |
| CCCGGTGA | 0.0806 |
| TAGGAAGA | -0.0327 |
| GAACACTC | 0.153 |
| TCCACTCA | 0.0428 |
| AACATACC | -0.0828 |
| CCGGCCAA | 0.0595 |

Series 2 — method: RNAcompete; form: RNA; sample: in vitro; concentration: 20 nM; setting: 7-mer, probes averaged, single round; baseline: mean of 7-mers; direction: higher = stronger binding
Target: PABPC1L2, full length, GST fusion (mouse, UniProt A0ABA7IW68)
Target sequence (chain): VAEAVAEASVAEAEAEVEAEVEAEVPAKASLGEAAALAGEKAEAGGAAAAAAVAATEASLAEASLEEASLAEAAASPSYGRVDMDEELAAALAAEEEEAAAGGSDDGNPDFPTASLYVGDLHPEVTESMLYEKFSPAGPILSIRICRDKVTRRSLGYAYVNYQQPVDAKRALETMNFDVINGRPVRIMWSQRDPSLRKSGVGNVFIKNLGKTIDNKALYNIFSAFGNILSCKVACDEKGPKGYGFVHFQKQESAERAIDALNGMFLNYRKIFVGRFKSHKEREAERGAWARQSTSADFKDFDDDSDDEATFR
| Sequence | 7-mer Z-score |
| --- | --- |
| AUUUCGU | -0.416 |
| CACUGCG | -0.139 |
| CUGUGAA | -0.0609 |
| CGUUUUC | -0.458 |
| UCAUCGA | -0.277 |
| CAAACUC | -0.0355 |

Series 3 — method: RNA Bind-n-Seq; form: RNA; sample: in vitro; concentration: 365 nM; baseline: no-protein control; direction: higher = stronger binding
Target: RNA binding protein fox-1 homolog 2, RRM domain, GST-SBP tag (RBFOX2, Homo sapiens, UniProt O43251-10, residues 100-194)
Setting: natural RNA segment, single round, ends assumed
All sequences stand within: GGGAGUUCUACAGUCCGACGAUC … UGGAAUUCUCGGGUGCCAA
| Sequence | RBNS enrichment (R) |
| --- | --- |
| AAAACAAACCCCGCUCAGAAACAAGAGAAAAUUGGGGCCGCGAAGAACUCACAGCCACGGAAGAGUUGUUGCAUUCAGAUUCUUGAGAAACAUUUGUUGCUCGGCAACAG | 1.2 |
| GGAAUUUUGACAGGAUUUCUAGCAAGACAGAUUUCUUCUCGAAAGCUUUUCUUCCUCAGGAGUAUGAAUUUUCUGAGCUAGCUGCUGUAAAUUCAGUGAGGCUAAAGGGA | 0.397 |
| ACUCAAGGCUUCUUAUUUUUCUUCUUUUCUAAAUGCUCUUGGACAUUAUUGGGCUUGCAGAGUUCCCUUAUUCUGGGGCUACAAUGCUUUUAUCGUUCCAAGCUUCAUCU | 0.472 |
| UGGGAUCUACAGGCAGGGUAGGCACAGGUGCAGCCUAAGAAGGGAACCUGCUUCCUCUCCCUUCCAAAGACAGUGACAGCUGACUGAGGGCAAAGAGCAGGCACCACUCA | 0.721 |
| AAUAUGAAUCUCAUUGAAAUAAAAAAUGCCUUAAAGAAGCAGAUAUACAAGGACAUAUAUAGAGCUCGGUAAAGGUUAUCACAUUAAUACUCUUUCUUUACAUUAAGAUU | 0.778 |

Other studies, line by line
| Substance | target | assay | test system | conditions | how to read | measurement | value |
| --- | --- | --- | --- | --- | --- | --- | --- |
| PhoQ, residues 284 288 289 292 302 303 SLKLQV | PhoP, residues 12 14 15 18 19 SEGLL (Escherichia coli, UniProt P23836) | Sort-seq, measured: YFP reporter | E. coli | PhoQ-PhoP variant library, added: 10 µM Mg2+ | baseline: high Mg2+ state, higher = stronger signaling | fold induction | 8.2 |
